Assay results pooled from the literature.
Parts stem from different laboratories: compare values within a part only.
Chain of UniProt Q56UN5 (whole entry, looked up): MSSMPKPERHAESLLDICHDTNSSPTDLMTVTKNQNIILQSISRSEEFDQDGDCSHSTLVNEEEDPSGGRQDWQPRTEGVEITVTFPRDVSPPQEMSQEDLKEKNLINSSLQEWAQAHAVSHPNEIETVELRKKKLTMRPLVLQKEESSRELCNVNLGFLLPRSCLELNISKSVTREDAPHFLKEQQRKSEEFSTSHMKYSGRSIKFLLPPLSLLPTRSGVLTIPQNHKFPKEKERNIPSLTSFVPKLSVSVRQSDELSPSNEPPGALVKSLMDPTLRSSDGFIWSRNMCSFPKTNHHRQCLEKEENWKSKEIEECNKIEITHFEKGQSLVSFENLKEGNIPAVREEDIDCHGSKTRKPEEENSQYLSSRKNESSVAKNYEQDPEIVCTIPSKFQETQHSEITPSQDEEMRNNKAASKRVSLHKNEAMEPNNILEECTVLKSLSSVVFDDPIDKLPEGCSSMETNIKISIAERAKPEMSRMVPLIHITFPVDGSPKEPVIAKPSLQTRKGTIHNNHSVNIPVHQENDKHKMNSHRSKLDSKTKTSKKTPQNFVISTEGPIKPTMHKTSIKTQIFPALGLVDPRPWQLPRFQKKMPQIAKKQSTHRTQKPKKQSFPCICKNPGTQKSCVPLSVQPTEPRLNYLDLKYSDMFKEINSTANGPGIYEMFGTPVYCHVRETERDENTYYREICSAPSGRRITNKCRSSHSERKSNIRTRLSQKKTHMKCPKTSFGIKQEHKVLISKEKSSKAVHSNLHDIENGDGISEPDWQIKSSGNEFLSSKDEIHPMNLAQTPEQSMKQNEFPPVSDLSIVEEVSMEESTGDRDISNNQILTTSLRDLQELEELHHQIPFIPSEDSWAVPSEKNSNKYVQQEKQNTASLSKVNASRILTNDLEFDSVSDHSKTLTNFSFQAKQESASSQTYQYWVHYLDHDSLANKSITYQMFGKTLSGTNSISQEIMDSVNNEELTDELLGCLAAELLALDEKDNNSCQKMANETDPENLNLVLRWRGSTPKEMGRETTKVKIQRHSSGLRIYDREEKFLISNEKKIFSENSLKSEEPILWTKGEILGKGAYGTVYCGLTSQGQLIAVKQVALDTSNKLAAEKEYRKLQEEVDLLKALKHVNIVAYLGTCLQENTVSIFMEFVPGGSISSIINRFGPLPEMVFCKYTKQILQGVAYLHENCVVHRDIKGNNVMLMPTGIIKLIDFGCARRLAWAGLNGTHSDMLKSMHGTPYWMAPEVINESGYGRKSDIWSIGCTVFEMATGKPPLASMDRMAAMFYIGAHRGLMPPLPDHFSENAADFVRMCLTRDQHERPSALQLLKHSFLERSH
Chain of UniProt Q2M2I8 (whole entry, looked up): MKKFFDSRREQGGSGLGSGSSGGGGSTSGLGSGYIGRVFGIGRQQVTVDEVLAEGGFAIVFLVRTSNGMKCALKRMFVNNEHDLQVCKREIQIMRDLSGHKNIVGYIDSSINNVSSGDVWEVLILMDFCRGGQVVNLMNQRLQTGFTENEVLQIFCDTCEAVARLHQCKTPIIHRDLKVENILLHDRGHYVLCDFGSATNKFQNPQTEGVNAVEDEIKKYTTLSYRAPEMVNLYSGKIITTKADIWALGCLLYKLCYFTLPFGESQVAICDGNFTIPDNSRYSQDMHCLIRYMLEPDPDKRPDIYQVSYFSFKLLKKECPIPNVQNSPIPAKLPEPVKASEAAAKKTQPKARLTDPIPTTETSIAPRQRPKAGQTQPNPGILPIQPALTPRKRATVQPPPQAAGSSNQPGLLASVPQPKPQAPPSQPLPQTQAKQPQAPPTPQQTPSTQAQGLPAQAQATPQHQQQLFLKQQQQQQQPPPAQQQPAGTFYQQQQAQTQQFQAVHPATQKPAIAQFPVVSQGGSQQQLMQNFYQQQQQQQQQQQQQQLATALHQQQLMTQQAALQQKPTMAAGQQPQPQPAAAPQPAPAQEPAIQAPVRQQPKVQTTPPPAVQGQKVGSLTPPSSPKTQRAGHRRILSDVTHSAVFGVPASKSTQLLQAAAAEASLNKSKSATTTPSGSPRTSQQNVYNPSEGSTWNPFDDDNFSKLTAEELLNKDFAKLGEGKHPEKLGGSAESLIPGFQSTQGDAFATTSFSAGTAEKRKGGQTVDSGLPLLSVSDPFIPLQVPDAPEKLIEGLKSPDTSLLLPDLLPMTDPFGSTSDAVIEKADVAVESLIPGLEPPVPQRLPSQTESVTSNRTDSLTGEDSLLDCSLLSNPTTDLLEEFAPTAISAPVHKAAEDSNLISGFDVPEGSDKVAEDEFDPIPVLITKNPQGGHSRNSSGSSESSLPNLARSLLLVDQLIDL
Chain of UniProt Q99759 (whole entry, looked up): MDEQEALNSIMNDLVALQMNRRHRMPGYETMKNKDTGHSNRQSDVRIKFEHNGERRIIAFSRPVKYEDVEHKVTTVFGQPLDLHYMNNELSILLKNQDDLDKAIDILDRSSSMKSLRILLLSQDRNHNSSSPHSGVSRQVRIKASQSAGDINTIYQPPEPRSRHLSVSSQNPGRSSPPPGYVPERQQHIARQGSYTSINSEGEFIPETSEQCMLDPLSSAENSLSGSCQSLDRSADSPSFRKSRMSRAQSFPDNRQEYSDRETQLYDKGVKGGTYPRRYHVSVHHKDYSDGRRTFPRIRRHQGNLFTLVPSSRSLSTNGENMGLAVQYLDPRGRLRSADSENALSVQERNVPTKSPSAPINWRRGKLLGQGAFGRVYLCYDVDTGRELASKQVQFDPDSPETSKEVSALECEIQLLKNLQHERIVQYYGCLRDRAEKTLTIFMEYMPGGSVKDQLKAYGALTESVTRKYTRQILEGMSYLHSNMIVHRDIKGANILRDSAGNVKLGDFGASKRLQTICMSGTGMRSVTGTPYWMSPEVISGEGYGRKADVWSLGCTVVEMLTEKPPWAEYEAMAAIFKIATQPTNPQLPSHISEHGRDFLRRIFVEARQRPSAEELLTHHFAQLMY
Chain of UniProt P42336 (whole entry, unmodified, looked up): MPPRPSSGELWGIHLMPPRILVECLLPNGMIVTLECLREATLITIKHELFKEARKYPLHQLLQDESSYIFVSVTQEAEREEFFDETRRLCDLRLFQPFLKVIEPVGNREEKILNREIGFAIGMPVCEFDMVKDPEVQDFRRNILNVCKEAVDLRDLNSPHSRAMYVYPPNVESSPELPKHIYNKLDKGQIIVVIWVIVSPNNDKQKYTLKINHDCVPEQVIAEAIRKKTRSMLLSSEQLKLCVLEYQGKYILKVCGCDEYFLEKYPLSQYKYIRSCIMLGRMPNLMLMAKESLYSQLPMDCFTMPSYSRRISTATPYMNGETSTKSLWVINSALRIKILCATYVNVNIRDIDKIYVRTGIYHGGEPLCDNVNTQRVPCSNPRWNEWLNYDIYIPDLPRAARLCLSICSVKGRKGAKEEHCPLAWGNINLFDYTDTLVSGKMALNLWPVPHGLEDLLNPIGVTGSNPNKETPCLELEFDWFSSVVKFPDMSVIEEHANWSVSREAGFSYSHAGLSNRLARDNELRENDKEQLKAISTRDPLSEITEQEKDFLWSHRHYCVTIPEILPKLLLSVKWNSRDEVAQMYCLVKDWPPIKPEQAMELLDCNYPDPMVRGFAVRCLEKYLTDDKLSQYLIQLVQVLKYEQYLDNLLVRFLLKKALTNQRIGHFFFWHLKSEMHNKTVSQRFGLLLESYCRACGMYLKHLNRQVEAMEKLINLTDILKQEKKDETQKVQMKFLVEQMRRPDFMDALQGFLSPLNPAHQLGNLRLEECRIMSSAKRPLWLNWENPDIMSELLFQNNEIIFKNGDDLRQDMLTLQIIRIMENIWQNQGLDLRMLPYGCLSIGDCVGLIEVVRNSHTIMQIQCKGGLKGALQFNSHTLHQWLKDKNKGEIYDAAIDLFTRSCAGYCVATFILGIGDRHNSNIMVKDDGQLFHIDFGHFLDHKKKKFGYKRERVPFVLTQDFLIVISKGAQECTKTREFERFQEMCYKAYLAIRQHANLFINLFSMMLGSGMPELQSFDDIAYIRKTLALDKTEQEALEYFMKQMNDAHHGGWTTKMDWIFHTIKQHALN

Set 1
Target: PABPC1L2, full length, GST fusion (mouse, UniProt A0ABA7IW68)
Technique: RNAcompete
Molecule type: RNA
Sample: in vitro
Concentration: 20 nM
Setting: 7-mer, probes averaged, single round
Relative to: mean of 7-mers
Direction: higher = stronger binding
Measurement: 7-mer Z-score
Residues (chain): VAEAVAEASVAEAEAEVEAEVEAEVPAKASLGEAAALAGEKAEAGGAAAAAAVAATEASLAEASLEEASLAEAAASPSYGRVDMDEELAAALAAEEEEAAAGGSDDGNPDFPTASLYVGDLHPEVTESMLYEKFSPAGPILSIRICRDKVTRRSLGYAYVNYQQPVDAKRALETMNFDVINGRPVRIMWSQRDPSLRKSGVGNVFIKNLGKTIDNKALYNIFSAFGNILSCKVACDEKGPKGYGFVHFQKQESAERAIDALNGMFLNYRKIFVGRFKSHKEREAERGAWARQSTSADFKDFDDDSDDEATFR
Sequence = AUACGAG; value = 0.0152
Sequence = AACCUAC; value = -0.012
Sequence = GUGCGGA; value = 0.133
Sequence = CAUAGGA; value = -0.0591
Sequence = GGGCUAA; value = 0.394
Sequence = AGACAUC; value = -0.277
Sequence = GGGAUAU; value = 0.191
Sequence = CGUCAAU; value = -0.278

Set 2
Target: MAP kinase-activated protein kinase 5 (MAPKAPK5, Homo sapiens, UniProt Q8IW41)
Chain of UniProt Q8IW41 (whole entry, looked up): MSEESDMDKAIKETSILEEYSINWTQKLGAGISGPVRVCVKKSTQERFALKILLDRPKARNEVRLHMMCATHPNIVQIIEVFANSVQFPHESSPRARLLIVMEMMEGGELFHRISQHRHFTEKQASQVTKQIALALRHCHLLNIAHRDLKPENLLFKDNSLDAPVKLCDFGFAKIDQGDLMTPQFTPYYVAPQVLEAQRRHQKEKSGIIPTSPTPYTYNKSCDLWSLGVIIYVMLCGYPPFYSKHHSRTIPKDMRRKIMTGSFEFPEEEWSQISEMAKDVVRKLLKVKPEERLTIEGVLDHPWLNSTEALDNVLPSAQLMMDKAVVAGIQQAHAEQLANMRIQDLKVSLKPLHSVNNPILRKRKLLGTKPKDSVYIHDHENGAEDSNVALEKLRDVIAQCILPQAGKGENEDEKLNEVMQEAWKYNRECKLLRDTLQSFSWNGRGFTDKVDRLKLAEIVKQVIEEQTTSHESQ
Read-out: enzyme activity
Action: inhibitor
Concentration: 0.5 µM
Relative to: control
Measurement: remaining activity
Compound = NCCNc1ncc(C(N)=O)c(Nc2cccc(C(F)(F)F)c2)n1; value = 84%
Compound = Cn1c2ccccc2c2c3c(c4c5ccccc5n(CCC#N)c4c21)CNC3=O; value = 127%
Compound = COc1ccc(C(=O)Nc2sc3c(c2C(N)=O)CCCC3)cc1OC; value = 86.4%
Compound = Cn1sc(=O)n(Cc2ccccc2)c1=O; value = 94.2%
Compound = O=C(CCCc1ccc(-c2ccccc2F)cc1)Nc1ccc(O)cc1; value = 91.4%
Compound = COc1cc2nccc(Oc3ccc(NC(=S)NC(=O)c4ccccc4C)cc3)c2cc1OC; value = 99%
Compound = Cc1ccc(NC(=O)c2ccc(CN3CCN(C)CC3)cc2)cc1Nc1nc(-c2cccnc2)cs1; value = 103%
Compound = Nc1ncnc2n[nH]c(Nc3ccc(F)cc3)c12; value = 80.9%
Compound = CCOC(=O)c1c(C)[nH]c(/C=C2\C(=O)Nc3ccccc32)c1C; value = 93.9%
Compound = OCC(O)CCON=C1C(c2c(O)[nH]c3ccccc23)=Nc2ccccc21 (stereo not drawn); value = 86.8%
Compound = COc1ccc(CNC(=O)Nc2ncc([N+](=O)[O-])s2)cc1; value = 90.1%
Compound = O=C1NC(=O)C(c2cn(CCCO)c3ncccc23)=C1c1cnccn1; value = 98.6%
Compound = C#Cc1cccc(Nc2ncnc3cc(OCCOC)c(OCCOC)cc23)c1; value = 89.7%
Compound = O=c1c2ccccc2[nH]c(=S)n1CCN1CCC(=C(c2ccc(F)cc2)c2ccc(F)cc2)CC1; value = 101%
Compound = Nc1[nH]nc2nc3ccccc3nc12; value = 82.7%

Set 3
Target: Centromere-binding protein 1, full length, His-tagged (CBF1, Saccharomyces cerevisiae, UniProt P17106, residues 1-351)
Chain of UniProt P17106 (whole entry, looked up): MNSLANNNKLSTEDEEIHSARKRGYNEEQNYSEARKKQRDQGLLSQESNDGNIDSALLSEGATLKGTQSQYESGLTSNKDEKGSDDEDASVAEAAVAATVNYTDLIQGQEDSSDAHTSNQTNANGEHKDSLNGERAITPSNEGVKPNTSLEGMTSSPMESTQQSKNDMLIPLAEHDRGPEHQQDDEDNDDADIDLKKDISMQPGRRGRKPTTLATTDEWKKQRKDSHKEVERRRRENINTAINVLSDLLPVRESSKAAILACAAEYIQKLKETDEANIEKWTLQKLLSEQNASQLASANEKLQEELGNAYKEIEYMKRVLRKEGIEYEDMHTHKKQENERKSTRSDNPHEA
Technique: competition protein-binding microarray
Molecule type: double-stranded DNA, one strand shown
Sample: in vitro
Concentration: 2 µM
Setting: whole 60-bp probe, lowest competitor level
With: Pho4 competitor, 0.05 µM
Direction: higher = stronger binding
Measurement: fluorescence intensity
Shared flanks, not repeated: … GTCTTGATTCGCTTGACGCTGCTG
Sequence = CATACCCAACCTTGGTTTGTGGGTGAAGATATTTGT; value = 69.2 a.u.
Sequence = GACATGAAGTAGAGCAGCATGCAGACAGAATACATT; value = 86.9 a.u.
Sequence = AGCGAACTCGCTCGAAGCGTGCCGACCAGCTCCCGG; value = 57.5 a.u.
Sequence = CTTCAGGGCAACAACCATGTGTTTCCTGGAAGCTTG; value = 81.4 a.u.
Sequence = GGTCAAAAGAGAGGAGATGTGACGGGAGCCAAATTG; value = 73.2 a.u.
Sequence = CTAACGAAGGTTTGAAACGTGGGTGACAAGCCAAGT; value = 70 a.u.
Sequence = CGGGGTTAAGTTTGCACAGTGGGTGGCTTGCAGCAG; value = 83 a.u.
Sequence = TTATAAAGAAACCGTCACGTTCTGGATGCGACGTCG; value = 265 a.u.

Set 4
Structure (SMILES): CC1=C(C#N)[C@@H](c2ccc3[nH]nc(C)c3c2)C(C#N)=C(c2ccc(Cl)cc2)N1
Concentration: 1 µM
Measurement: remaining binding
target = Receptor-type tyrosine-protein kinase FLT3, autoinhibited (FLT3, Homo sapiens, UniProt P36888); read-out = cell-free assay; technique = competition with immobilised ligand; value = 100%
target = MAP/microtubule affinity-regulating kinase 4 (MARK4, Homo sapiens, UniProt Q96L34); read-out = cell-free assay; technique = competition with immobilised ligand; value = 100%
target = Receptor-type tyrosine-protein kinase FLT3 (FLT3, Homo sapiens, UniProt P36888, D835V/ITD); read-out = cell-free assay; technique = competition with immobilised ligand; value = 93.9%
target = Cyclin-dependent kinase 19 (CDK19, Homo sapiens, UniProt Q9BWU1); technique = competition binding; value = 66.8%
target = Serine/threonine-protein kinase SIK2 (SIK2, Homo sapiens, UniProt Q9H0K1); read-out = cell-free assay; technique = competition with immobilised ligand; value = 100%
target = Serine/threonine-protein kinase haspin (HASPIN, Homo sapiens, UniProt Q8TF76); read-out = cell-free assay; technique = competition with immobilised ligand; value = 100%
target = Cyclin-dependent kinase 13 (CDK13, Homo sapiens, UniProt Q14004); read-out = cell-free assay; technique = competition with immobilised ligand; value = 86.6%
target = Phosphatidylinositol 4,5-bisphosphate 3-kinase catalytic subunit alpha isoform (PIK3CA, Homo sapiens, UniProt P42336, E542K); read-out = cell-free assay; technique = competition with immobilised ligand; value = 78.6%
target = Epidermal growth factor receptor (EGFR, Homo sapiens, UniProt P00533, T790M); read-out = cell-free assay; technique = competition with immobilised ligand; value = 100%
target = Casein kinase I isoform alpha-like (CSNK1A1L, Homo sapiens, UniProt Q8N752); read-out = cell-free assay; technique = competition with immobilised ligand; value = 100%
target = Myotonin-protein kinase (DMPK, Homo sapiens, UniProt Q09013); read-out = cell-free assay; technique = competition with immobilised ligand; value = 100%
target = AP2-associated protein kinase 1 (AAK1, Homo sapiens, UniProt Q2M2I8); read-out = binding; value = 100%
target = BMP-2-inducible protein kinase (BMP2K, Homo sapiens, UniProt Q9NSY1); read-out = cell-free assay; technique = competition with immobilised ligand; value = 100%
target = Mitogen-activated protein kinase kinase kinase 19 (MAP3K19, Homo sapiens, UniProt Q56UN5); read-out = cell-free assay; technique = competition with immobilised ligand; value = 100%
target = Mitogen-activated protein kinase kinase kinase 3 (MAP3K3, Homo sapiens, UniProt Q99759); read-out = cell-free assay; technique = competition with immobilised ligand; value = 100%
target = Myosin light chain kinase family member 4 (MYLK4, Homo sapiens, UniProt Q86YV6); read-out = cell-free assay; technique = competition with immobilised ligand; value = 100%
target = RAC-beta serine/threonine-protein kinase (AKT2, Homo sapiens, UniProt P31751); read-out = cell-free assay; technique = competition with immobilised ligand; value = 100%

A few entries again (set 3):
Sequence = GACATGAAGTAGAGCAGCATGCAGACAGAATACATT; value = 86.9 a.u.
Sequence = AGCGAACTCGCTCGAAGCGTGCCGACCAGCTCCCGG; value = 57.5 a.u.
Sequence = CTTCAGGGCAACAACCATGTGTTTCCTGGAAGCTTG; value = 81.4 a.u.
